Measurements from different studies.
Each numbered part is a random draw from the data of one study; scales do not carry over between parts. Changes are numbered by the printed parent chain.

Sample 1
Target: RNA binding protein fox-1 homolog 2, RRM domain, GST-SBP tag (RBFOX2, Homo sapiens, UniProt O43251-10, residues 100-194)
Technique: RNA Bind-n-Seq
Molecule type: RNA
Matrix: in vitro
Tested at: 365 nM
Notes: natural RNA segment, single round, ends assumed
Reference: no-protein control
Reading: higher = stronger binding
Residues (chain): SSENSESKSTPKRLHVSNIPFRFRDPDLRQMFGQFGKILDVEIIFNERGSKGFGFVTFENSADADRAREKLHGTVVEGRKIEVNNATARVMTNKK
Sequence	RBNS enrichment (R)
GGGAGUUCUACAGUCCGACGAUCUUCUGUCUGAAUGGCCCCCCUUUUCAUGCACGCUCGUUCUUAAGAGACGCACCAUCCGCAGGCAGCGUCUCAGUGAAGCCUGUCCCCUGGGCUUGUCCACGGCAGGAGGCUGGAAUUCUCGGGUGCCAA	2.27
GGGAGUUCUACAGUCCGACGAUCCAGGCCAGUGGCAGGUGGACUGGAAGAGGCCUCUCCACUGAGCCUGUGUUCUGUGCUUCAGGCUCUGGAUCAUCACCCCCGCUGCUCUCCCAUUCCGGUACCUAAGUAACUGGAAUUCUCGGGUGCCAA	0.28
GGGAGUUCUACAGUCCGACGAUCCCCUAGGUUUAGAAAAACAACUUUAGAAAUUCCUCCUCCCACCCUCGUAAACCCUGGCACUCCCUCCUUUAAUGGGGGCUCCCAUAAGACCCAUCUUUCCCUGCAGCUCAUGGAAUUCUCGGGUGCCAA	0.934
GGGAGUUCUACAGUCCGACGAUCAGUCGGGGAACUCCCACUAGCUCACCUGAGGGGGGCUCGAUGCAGCUGAAAUACUGAAUACUGAAAUACUAGAAACCAACAAAACUGGUUUCUAGAAUUCUCCAGGGAUUUGGAAUUCUCGGGUGCCAA	0.234
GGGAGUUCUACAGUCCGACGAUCUGAUUUUAUAUAAAGAUUUGUGGGGAAAUAUCUUUAUAUUAAAAGCAGGUUAUUGGAAUAGAAUCCAAAAUCAUUUUCCAGCCAAAACAUCCAUUCGAAAUCUGUAUCCCUGGAAUUCUCGGGUGCCAA	2.12
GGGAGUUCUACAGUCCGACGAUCUUCUCUUAGAUCACAUUUAGUAGCAUAACUGUAGGGACUAUUAGAGAUGGCAUCUCAUCGAUGAGAGAGAAUCACAAUCAGAAUGGAAGCACUUUGAGUAUCUGAAGAGUUGGAAUUCUCGGGUGCCAA	0.728
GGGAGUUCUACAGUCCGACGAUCACAUAUUCUGGUGGCUCCCUGCUGGCCCUCUGCUCACACCUUGAAAGAGCCUUUUCAAAUACAGAUCCAGAAGUCUGAUUUGUGCCAACCUUAGGAUGACCUAAGGGGAGUGGAAUUCUCGGGUGCCAA	0.353
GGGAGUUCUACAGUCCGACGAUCUUCAAUAGCGGCUGGCUUUUUGUGAUUCAGUAACUUAAAUAUUGCCAGUGACUGAGGAUCCCCUCCAGUCAUGGUUCUGUAUAUUCUUUGAGACAGGUGUUUUCAUCUUCUGGAAUUCUCGGGUGCCAA	0.276

Sample 2
Target: CCNF, cyclin fold, Cln2 fusion (human)
Technique: yeast growth competition, sequencing
Matrix: yeast
Notes: strong parent motif
Reference: not given
Reading: higher = stronger binding
Parent: SLBP docking peptide (human); ARYKRKLLINDFG
Variant	normalised enrichment score
D11Y	3.12
L8A	1.55
L8K	1.15
D11R	2.16
D11V	2.31
L8F	2.46
N10H	1.21
F12P	1.16
N10V	1.64
G13L	0.482
L7Y	2.02
F12N	1.45
K4F	2.35
Y3R	1.63
R5V	1.89
N10R	1.19
R2V	1.59
R5C	2.23
R5D	0.6
R2W	1.98
D11W	2.5
R5A L7A	1.17
L7H	0.094
A1P	1.87
L8V	2.12

Sample 3
Target: Histone acetyltransferase KAT6A, winged helix 1, GST fusion (KAT6A, Homo sapiens, UniProt Q92794, residues 1-85)
Technique: protein binding microarray
Molecule type: double-stranded DNA, one strand shown
Matrix: in vitro
Tested at: not given
Notes: 8-mer, flanks averaged, mean of 2 arrays, mostly near background
Reference: not given
Reading: higher = stronger binding
Target sequence (chain): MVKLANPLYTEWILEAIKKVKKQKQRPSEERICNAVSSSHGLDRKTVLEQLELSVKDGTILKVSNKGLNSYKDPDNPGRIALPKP
Sequence	E-score
CAGGGTGG	-0.133
CTTAGCTC	-0.0783
CGCTAATA	0.233
GCCCCTCA	0.0744
ATGTAGCG	0.163
CGACGTTC	0.00773
CTTATGAC	-0.215
ACGGGAAA	0.225
AATCCTCA	-0.248
AGAATGAT	-0.176
ACTAAACA	-0.222
CGCTGACG	0.356
GTATTCTA	-0.0557
GTGTCACA	-0.0261
AGCTAGCC	0.0367
GCCGCGAA	0.398
CAAGTGCC	0.0569
GACCAAAA	-0.125
GGAAAGGA	0.0183
GAAGCGTA	0.152
AATAGCTC	-0.1
GTTATGAA	-0.172
GCATCCCA	-0.1
GTCTACGA	-0.214

Sample 4
Substance: PhoQ, residues 284 288 289 292 302 303 TLMATV
Technique: Sort-seq
Item: YFP reporter
Matrix: E. coli
Notes: PhoQ-PhoP variant library
Added: 10 µM Mg2+
Reference: high Mg2+ state
Reading: higher = stronger signaling
target	fold induction
PhoP, residues 12 14 15 18 19 HHYTI (Escherichia coli, UniProt P23836)	18.2
PhoP, residues 12 14 15 18 19 AYFRS (Escherichia coli, UniProt P23836)	13.5
PhoP, residues 12 14 15 18 19 SFCSL (Escherichia coli, UniProt P23836)	4.64

Sample 5
Target: RING finger protein unkempt homolog, zinc fingers 1-6, GST-SBP tag (UNK, Homo sapiens, UniProt Q9C0B0, residues 30-357)
Chain of UniProt Q9C0B0 (30-357, looked up): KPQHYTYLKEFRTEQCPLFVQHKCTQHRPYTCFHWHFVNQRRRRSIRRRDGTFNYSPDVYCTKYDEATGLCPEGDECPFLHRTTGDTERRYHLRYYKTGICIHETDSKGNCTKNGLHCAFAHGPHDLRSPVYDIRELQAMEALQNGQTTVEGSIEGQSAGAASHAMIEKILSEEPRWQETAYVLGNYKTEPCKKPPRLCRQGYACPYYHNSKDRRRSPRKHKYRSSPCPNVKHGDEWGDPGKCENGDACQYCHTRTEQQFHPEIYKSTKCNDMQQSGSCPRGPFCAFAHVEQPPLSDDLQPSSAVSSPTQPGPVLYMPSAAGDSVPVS
Technique: RNA Bind-n-Seq
Molecule type: RNA
Matrix: in vitro
Tested at: not given
Notes: RNA with constant flanks, human-mouse chimeric sites, ends assumed
Reference: input RNA pool
Reading: higher = stronger binding
Sequence	bound/input enrichment [ratio]
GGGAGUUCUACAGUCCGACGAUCCUCUUUGAAUCAUUCAAGAGUUUUGAAGGUCUCUUUUAUUUUCUGGGAUCCAUUGUUAACUUUAGCCAGGACCCAGAUGUGCACUUUAAAUAUAUUCAGGCGGCUUGCAAGACUGGGCAACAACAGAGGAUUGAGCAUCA	0.48
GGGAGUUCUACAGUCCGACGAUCACUCAGAGAUCCACCUCCCAAAGUGCUCUGGAGCUCUGUGUGGCCACCACACCUAACUUCAUAGACAUAUAUUUUUUUUAAUAUGAAUCUUCCUGUUCGUCCAGGGAAGAAAGAUUUGUUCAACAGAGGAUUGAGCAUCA	29.3
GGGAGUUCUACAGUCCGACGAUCAGAGAUAAGACAUCCAGGAACAUGCGAGGCUCCCGGAUGAAUGGACUGCCUAGCCCCACUCACAGCGCCCACUGUAGCUUCUACCGAACCAGAACCUUGCAGGCAUUGAGUAAUGAGAAGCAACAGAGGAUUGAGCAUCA	0.136
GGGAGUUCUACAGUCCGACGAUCAGCACAACCCCAGCAAAGCUAAGAAAUCCUUGUACAAGUGAACAAAACUGCACCAGCCCAUUUAGCUACAAAAAUGUGCUUAGUCUUACUAAUAAAGGAGAAGUAUUCAAUGAACUUGUUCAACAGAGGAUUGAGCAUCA	0.583
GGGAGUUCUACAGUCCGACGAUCACAGUUAUAUUGUUGAGUUUCAUUUUCAUAUAUUCUUGUAGUGUCUGCUUGCCUGUGACUUCUGGUAAAAUAAAAUAAGCCUUUGAAUUAGCAUGCUAUUUAACAUUAACAUUUUCUAAACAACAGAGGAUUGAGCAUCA	4.78
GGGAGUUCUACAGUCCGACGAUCACAGUUAUACACUGUUGUUUCAUUUUCUUGUAUGUUUGUAGUGUCUGCUUGCCUGUGACUUCUGGUAAAAUAAAAUAAGCCUUUGAAAAUAUUUUAGCAUGGUAUUUAACAUUUUCUAAACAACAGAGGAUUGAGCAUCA	2.1
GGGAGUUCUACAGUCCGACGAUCGUGACUGGUGUUAAGAUUUCCCCUCAGCAAAGAAGUGCAGUAGUCACAAUAAUCCCUUCUGUGGUGAGUGCCAGUCAGAUUGUGGAGCUGGUCCCAGAACUCAGUUUAGACAUGGGAACUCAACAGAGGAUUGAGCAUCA	0.293
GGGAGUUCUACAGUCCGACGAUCCCCCAAUACCAUUUGCAGGUCUGGAACUGCACUCUCUUUUUUAAAAAACAUGUAUACAUUUUAGGGCUGUAGAUUUAUUUUCCUGGUUUCUUUUCCAAUUGCUGACUUUGAGCACAAGAACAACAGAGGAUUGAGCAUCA	2.21

Repeated from above (sample 2):
Variant	normalised enrichment score
L7Y	2.02
L8K	1.15
D11Y	3.12
R2W	1.98
L8V	2.12
L8A	1.55
R5A L7A	1.17
R5V	1.89
R5D	0.6
K4F	2.35
